Published values collected from several papers.
Compare with care: the assays were run in different laboratories. Numbers after ± are the reported error.

With CCN(CC)CCCC[C@H](NC(=O)[C@H](CC(C)C)NC(=O)[C@H](C)NC(=O)[C@H](Cc1ccccc1)NC(=O)c1ccc(C(C)(C)C)cc1)C(=O)N[C@@H](CO)C(=O)OC the plasma concentration was 580 ng/mL (male Swiss Albino mice, plasma; intraperitoneal, 10 mg/kg, 2 h).
For CC[C@H](C)[C@H](NC(=O)[C@H](Cc1ccccc1)NC(=O)[C@H](CCC(=O)O)NC(=O)[C@H](CCCNC(=N)N)NC(=O)[C@H](C)NC(=O)[C@H](C)NC(=O)[C@H](CCC(N)=O)NC(=O)[C@H](CCC(=O)O)NC(=O)[C@H](CCC(=O)O)NC(=O)[C@H](CC(C)C)NC(=O)[C@H](Cc1ccc(O)cc1)NC(=O)[C@H](CO)NC(=O)[C@H](CO)NC(=O)[C@@H](NC(=O)[C@H](CC(=O)O)NC(=O)[C@H](CO)NC(=O)[C@@H](NC(=O)[C@H](Cc1ccccc1)NC(=O)[C@@H](NC(=O)CNC(=O)[C@H](CCC(=O)O)NC(=O)[C@H](C)NC(=O)CCc1cnc[nH]1)[C@@H](C)O)[C@@H](C)O)C(C)C)C(=O)N[C@@H](C)C(=O)N[C@@H](Cc1c[nH]c2ccccc12)C(=O)N[C@@H](CC(C)C)C(=O)N[C@H](C(=O)N[C@@H](CCCNC(=N)N)C(=O)NCC(=O)N[C@@H](CCCNC(=N)N)C(=O)N[C@@H](CCCCNC(=O)COCCOCCNC(=O)COCCOCCNC(=O)CC[C@H](NC(=O)CCCCCCCCCCCCCCCCC(=O)O)C(=O)O)C(=O)NCC(=O)NCC(=O)N[C@@H](CO)C(=O)N[C@@H](CCCCNC(=O)[C@H](CCCCNc1c(NCCCCCN(O)C(=O)CCC(=O)NCCCCCN(O)C(=O)CCC(=O)NCCCCCN(O)C(C)=O)c(=O)c1=O)Nc1c(NCCCCCN(O)C(=O)CCC(=O)NCCCCCN(O)C(=O)CCC(=O)NCCCCCN(O)C(C)=O)c(=O)c1=O)C(=O)O)C(C)C [zirconium-89 labelled], the tissue uptake was 0.401 %ID/g (ex vivo gamma counting; male Sprague-Dawley rat, stomach-duodenum; intravenous, 1 nmol, 24 h).
C#C[C@]1(CO)O[C@@H](n2cnc3c(N)nc(F)nc32)C[C@@H]1O — result for “Cmax at NOAEL”: 18.9 µM (rat, plasma; oral, 50 mg/kg/day, 29 days).
With COc1ncccc1-c1cnn2ccc(N3CCN(C(=O)OC(C)C)CC3)nc12 the free concentration was 0.096 µM (rat CCI model, plasma; oral, 30 mg/kg, 210 min).
With N.N.[Cl][Pt][Cl] the AST was 208 ± 60 U/L (nude mice, serum; dose not given, 10 days).
O=S(=O)(Nc1ccccc1)c1ccc(NC(=S)Nc2ccccc2)cc1 — result for “blood cell fraction”: 1.16% (item: EO%; male mouse, blood; oral, 5 mg/kg daily, 14 days).
For CO[C@H]1C[C@@H]2CC[C@@H](C)[C@@](O)(O2)C(=O)C(=O)N2CCCC[C@H]2C(=O)O[C@H]([C@H](C)C[C@@H]2CC[C@@H](OC(=O)NCCOCCOCCOCCOCCOCCOCCOCCOCCC(=O)N3CCc4cc(Cn5nc(-c6ccc7oc(N)nc7c6)c6c(N)ncnc65)ccc4C3)[C@H](OC)C2)C[C@@H](O)[C@H](C)/C=C(\C)[C@@H](O)[C@@H](OC)C(=O)[C@H](C)C[C@H](C)/C=C/C=C/C=C/1C, “Neutropenia AE leading to dose reduction” read 1.8% (patients with advanced solid tumours; intravenous, dose not given, any grade).
For CC(C)[C@@H]1NC(=O)CNC(=O)[C@H](CC(N)=O)NC(=O)[C@H](CCCNC(=N)N)NC(=O)[C@H](Cc2ccc(O)cc2)NC(=O)[C@H](C(C)C)NC(=O)[C@@H](NC(=O)[C@@H](NC(=O)[C@H](CC(N)=O)NC(=O)[C@H](Cc2c[nH]c3ccccc23)NC(=O)[C@H](C)NC(=O)[C@H](Cc2ccccc2)NC(=O)CN)C(C)C)CSSC[C@@H](C(=O)N[C@@H](Cc2cnc[nH]2)C(=O)N[C@@H](CCCNC(=N)N)C(=O)N[C@@H](CCCNC(=N)N)C(=O)N[C@@H](C)C(=O)N[C@@H](CC(N)=O)C(N)=O)NC(=O)[C@H](C(C)C)NC(=O)[C@H](CCCNC(=N)N)NC1=O, the albumin was 35 ± 1.03 g/L (ICR mouse, blood; intramammary, 5 mg/kg, day 5, 3 d dosing).
[O-][S+]1CCc2nc(N3CCC(c4ncc(Cl)cn4)CC3)nc(NC3(CO)CCC3)c21 (centres unmarked) — result for “adverse event incidence”: 8.3% (item: Dizziness; healthy male humans; single dose, all groups).
NCCCC[C@@H]1NC(=O)[C@@H](Cc2c[nH]c3ccccc23)NC(=O)[C@H](c2ccccc2)NC(=O)[C@@H]2C[C@@H](OC(=O)NCCN)CN2C(=O)[C@H](Cc2ccccc2)NC(=O)[C@H](Cc2ccc(OCc3ccccc3)cc2)NC1=O: “placebo-corrected QTcF change” 15.8 ms (healthy volunteers, male; 1950 µg twice daily, 2.0 h, post hoc).
Under “patients with increased GGT”, O=C1Nc2cc3[nH]nc(-c4ccncc4)c3cc2CN1Cc1ccccc1 is recorded as 0% (CTCAE v4.03; advanced solid tumour patients; intravenous, 0.9 mg/kg, schedules 1/2).
For Cc1cccc(Cn2nc(C3CC3)c3c(NC(=O)c4cnc5cc(OCCN6CCN(C)CC6)ccn45)cccc32)n1, “adverse events incidence” read 9.1% (item: Hypokalemia; human platinum-resistant ovarian cancer; oral, dose not given, all-causality).
For CC(C)Nc1ccnc(Nc2cccc(-c3cccnc3)c2)n1, the blood chemistry was 1.8 g/dL (item: globulin; mouse, blood; intraperitoneal, 5 mg/kg).
Under “treatment-related ALT elevation incidence”, CN[C@@H](C)C(=O)N[C@H]1CN(S(=O)(=O)c2cccc(S(=O)(=O)N3CC[C@H]4CC[C@@H](C(=O)NC(c5ccccc5)c5ccccc5)N4C(=O)[C@@H](NC(=O)[C@H](C)NC)C3)c2)CC[C@H]2CC[C@@H](C(=O)NC(c3ccccc3)c3ccccc3)N2C1=O is recorded as 0% (patients with advanced solid tumours; 7 mg, phase I monotherapy).
